Literature values, collected from citations in different studies.
± marks the error that the study gave.
ABCB1: ATP-dependent translocase ABCB1 (ABCB1, Homo sapiens, UniProt P08183)
Sequence of UniProt P08183 (whole entry, looked up): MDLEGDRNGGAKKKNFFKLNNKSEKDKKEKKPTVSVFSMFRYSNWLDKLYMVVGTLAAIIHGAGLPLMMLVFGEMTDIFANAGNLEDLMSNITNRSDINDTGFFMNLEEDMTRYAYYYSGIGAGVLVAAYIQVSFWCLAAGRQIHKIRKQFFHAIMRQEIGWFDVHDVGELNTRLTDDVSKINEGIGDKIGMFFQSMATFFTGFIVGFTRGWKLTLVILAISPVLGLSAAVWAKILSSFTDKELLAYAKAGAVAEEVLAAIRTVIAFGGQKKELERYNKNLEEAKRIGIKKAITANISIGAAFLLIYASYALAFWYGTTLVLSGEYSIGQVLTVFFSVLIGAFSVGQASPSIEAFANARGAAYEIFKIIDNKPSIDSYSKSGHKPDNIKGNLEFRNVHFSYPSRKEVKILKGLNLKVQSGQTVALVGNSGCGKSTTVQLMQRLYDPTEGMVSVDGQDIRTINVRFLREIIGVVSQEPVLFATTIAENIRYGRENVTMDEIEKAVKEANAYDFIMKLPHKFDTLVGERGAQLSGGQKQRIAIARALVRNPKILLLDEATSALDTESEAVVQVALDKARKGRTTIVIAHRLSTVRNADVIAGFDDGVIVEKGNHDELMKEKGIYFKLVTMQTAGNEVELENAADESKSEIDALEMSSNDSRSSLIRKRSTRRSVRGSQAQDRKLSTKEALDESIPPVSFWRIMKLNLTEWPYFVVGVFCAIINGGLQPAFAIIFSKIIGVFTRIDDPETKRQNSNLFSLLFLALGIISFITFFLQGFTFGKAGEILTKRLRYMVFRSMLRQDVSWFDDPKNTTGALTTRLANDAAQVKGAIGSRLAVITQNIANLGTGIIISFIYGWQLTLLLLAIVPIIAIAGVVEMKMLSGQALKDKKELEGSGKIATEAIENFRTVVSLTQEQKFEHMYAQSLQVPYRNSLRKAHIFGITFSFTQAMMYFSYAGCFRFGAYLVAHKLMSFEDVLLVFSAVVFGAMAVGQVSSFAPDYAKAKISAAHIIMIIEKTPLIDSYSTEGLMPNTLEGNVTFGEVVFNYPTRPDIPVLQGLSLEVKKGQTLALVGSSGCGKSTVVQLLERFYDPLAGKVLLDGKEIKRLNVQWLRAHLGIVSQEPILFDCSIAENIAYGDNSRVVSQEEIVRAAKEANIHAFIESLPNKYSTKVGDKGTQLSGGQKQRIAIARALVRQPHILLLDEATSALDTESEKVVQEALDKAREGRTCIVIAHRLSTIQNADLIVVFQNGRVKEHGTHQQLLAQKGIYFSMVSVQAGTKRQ
Sequence of UniProt P08684 (whole entry, looked up): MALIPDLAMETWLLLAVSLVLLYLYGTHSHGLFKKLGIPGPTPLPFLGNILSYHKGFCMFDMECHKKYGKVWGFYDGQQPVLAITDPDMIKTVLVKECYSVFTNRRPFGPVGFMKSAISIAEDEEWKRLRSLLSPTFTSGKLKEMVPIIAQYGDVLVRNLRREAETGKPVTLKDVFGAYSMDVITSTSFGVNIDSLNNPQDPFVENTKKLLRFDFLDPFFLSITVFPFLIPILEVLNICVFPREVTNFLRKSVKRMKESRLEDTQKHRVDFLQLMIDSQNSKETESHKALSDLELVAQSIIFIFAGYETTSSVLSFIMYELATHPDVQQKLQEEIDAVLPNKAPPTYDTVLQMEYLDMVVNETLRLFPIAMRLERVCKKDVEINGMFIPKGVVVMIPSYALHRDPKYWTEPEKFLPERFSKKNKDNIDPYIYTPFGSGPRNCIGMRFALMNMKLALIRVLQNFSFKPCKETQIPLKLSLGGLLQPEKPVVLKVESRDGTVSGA
Sequence of UniProt P11712 (whole entry, looked up): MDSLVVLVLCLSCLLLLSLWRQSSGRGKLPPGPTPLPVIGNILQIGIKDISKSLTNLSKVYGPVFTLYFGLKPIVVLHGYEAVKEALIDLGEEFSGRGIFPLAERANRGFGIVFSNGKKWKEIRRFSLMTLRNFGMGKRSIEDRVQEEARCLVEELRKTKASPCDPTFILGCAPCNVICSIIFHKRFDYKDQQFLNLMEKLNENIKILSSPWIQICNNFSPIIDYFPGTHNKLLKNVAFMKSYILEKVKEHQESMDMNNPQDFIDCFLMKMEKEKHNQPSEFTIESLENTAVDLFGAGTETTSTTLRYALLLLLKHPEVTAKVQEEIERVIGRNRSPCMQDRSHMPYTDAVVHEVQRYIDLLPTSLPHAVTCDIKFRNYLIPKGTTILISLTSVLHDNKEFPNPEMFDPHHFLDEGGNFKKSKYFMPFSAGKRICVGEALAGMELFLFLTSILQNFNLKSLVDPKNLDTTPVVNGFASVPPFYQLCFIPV

Compound	target	test	system	setting	how to read	measurement	value
Oc1ccc(O)c(CN(CCN(Cc2ccccn2)Cc2cc(O)ccc2O)Cc2ccccn2)c1.[Br-].[Br-].[Mn+2]	Mn(II) complex			25 °C		pKa	5.53
COc1ccc2cc(C(=O)/C=C/c3cccnc3)ccc2c1	CYP1B1					IC50	0.004 µM
CC[C@H](C)[C@@H]1NC(=O)[C@H](CCSC)NC(=O)CCCC(=O)NCCCC[C@@H](C(N)=O)NC(=O)[C@H]([C@@H](C)O)NC(=O)CNC(=O)[C@H](C)NC(=O)[C@H](C(C)C)NC(=O)[C@H](Cc2ccccc2)NC(=O)[C@H](CCC(=O)O)NC(=O)[C@H](Cc2ccc(O)cc2)NC(=O)[C@H](Cc2c[nH]c3ccccc23)NC(=O)[C@H]([C@@H](C)O)NC1=O	Chymotrypsinogen A (Bos taurus, UniProt P00766)				reference: linear sequence	protease resistance	~3 fold
O=C(O)c1cc2cc(O)ccc2n1Cc1ccc(Cl)c(C(F)(F)F)c1	rat BSEP	bile acid transport				IC50	130 µM
CC(=O)N1CCC(NC(=O)NC23CC4CC(C)(CC(C2)c2ccccc24)C3)CC1	Cytochrome P450 3A4 (CYP3A4, Homo sapiens, UniProt P08684)	enzyme activity, inhibitor		10 µM, added: DBF substrate		inhibition	8 ± 3%
C[C@@H](c1cc(-c2ccc(OC(F)(F)F)cc2)no1)[C@](O)(Cn1cnnn1)c1ccc(F)cc1F	CYP3A4	inhibitor		concentration not given		inhibition	no inhibition
CN1CCC(C)(C)c2cc3c(-c4ccc(C(=O)N5CCCCC5)s4)c4ccc(=[N+](C)C)cc-4sc3cc21	ABCB1	item: cell-associated dye			reference: with over without P-gp inhibitor	cellular dye accumulation ratio	5.2
COc1ccc(Nc2nccc(-c3c[nH]nc3-c3cccnc3)n2)cc1	Cytochrome P450 2C9 (CYP2C9, Homo sapiens, UniProt P11712)			10 µM		inhibition	40%
CN1CCC(C)(C)c2cc3c(-c4ccc(C(=S)N5CCCCC5)s4)c4ccc(=[N+](C)C)cc-4sc3cc21	ABCB1	substrate		concentration not given, with inhibitor		cell-associated fraction	62 ± 1%
CCCCc1oc2ccccc2c1C(=O)c1cc(I)c(OCCNCC)c(I)c1	CYP2C9, human	inhibitor			reference: compound over amiodarone	potency ratio	40 to 90
O=C1C=C2CN(C(C(=O)C3CC3)c3ccccc3F)CCC2S1 (stereo not drawn)	CYP3A4	item: prasugrel active metabolite	in vitro	concentration not given		contribution to bioactivation	38 to 70%
Cc1[nH]nc2c1N=C(c1ccccc1Cl)c1cnc(N3CCOCC3)cc1N2	CYP2D6	substrate, chemical inhibition				contribution to metabolism	24.5%
